Experimental data from different studies.
Each line is one published result; not all experiments were run side by side.
Organism: Staphylococcus aureus

Structure (SMILES) = C[C@@H](O)[C@H](NC(=O)[C@H](Cc1ccccc1)NC(=O)[C@H](Cc1c[nH]c2ccccc12)NC(=O)[C@H](Cc1ccccc1)NC(=O)[C@@H](NC(=O)[C@H](Cc1ccccc1)NC(=O)[C@H](CCCNC(=N)N)NC(=O)[C@@H](N)CCCNC(=N)N)[C@@H](C)O)C(=O)N[C@@H](Cc1ccccc1)C(=O)N[C@@H](CCCNC(=N)N)C(=O)N[C@@H](CCCNC(=N)N)C(N)=O; system = MRSA 43300; setting = 24 h, 37 °C; MIC = 64 µM
Structure (SMILES) = Cc1onc(-c2ccccc2)c1C(=O)N[C@@H]1C(=O)N2[C@@H]1SC(C)(C)[C@@H]2C(=O)O; system = 1195201 multidrug-resistant; MIC = > 4 µg/mL
Structure (SMILES) = CC[C@H](C)[C@H](NC(=O)[C@H](CO)NC(=O)CNC(=O)[C@H](CCCCN)NC(=O)[C@@H](NC(=O)[C@H](CC(N)=O)NC(=O)[C@H](Cc1ccccc1)NC(=O)[C@H](CC(N)=O)NC(=O)[C@@H](NC(=O)[C@H](CCCNC(=N)N)NC(=O)[C@@H]1CCCN1C(=O)[C@H](CCCNC(=N)N)NC(=O)[C@@H](NC(=O)[C@H](CCCNC(=N)N)NC(=O)[C@H](CCCNC(=N)N)NC(=O)[C@@H](NC(=O)[C@H](CCCNC(=N)N)NC(=O)[C@H](CO)NC(=O)[C@H](CC(C)C)NC(=O)[C@H](Cc1ccccc1)NC(=O)[C@H](CCCNC(=N)N)NC(=O)CNC(=O)[C@H](Cc1ccccc1)NC(=O)[C@H](CCCNC(=N)N)NC(=O)CNC(=O)[C@H](CCCNC(=N)N)NC(=O)[C@H](CCC(N)=O)NC(=O)[C@@H](NC(=O)[C@@H](N)CC(C)C)C(C)C)[C@@H](C)CC)[C@@H](C)CC)[C@@H](C)CC)[C@@H](C)CC)C(=O)O; assay = broth microdilution; system = ATCC 29213, Mueller-Hinton broth; setting = 16 to 20 h, 37 °C; MIC = 2.49 µM
Structure (SMILES) = O=[N+]([O-])[O-].O=[N+]([O-])[O-].O=[N+]([O-])[O-].[Ga+3]; assay = broth dilution; system = Newman; setting = 22 to 24 h, 37 °C; MIC = 128 µg/mL
Structure (SMILES) = COc1ccc2ccc(O)c(/C=N/[C@H]3CCCC[C@H]3/N=C/c3c(O)cccc3F)c2c1; assay = bacterial growth, broth microdilution; system = vancomycin-intermediate; MIC = > 40 µM
Structure (SMILES) = CC[C@H](C)[C@H](N)C(=O)N[C@@H](CC(C)C)C(=O)NCC(=O)N[C@@H](CCC(=O)O)C(=O)N[C@H](C(=O)N[C@@H](Cc1c[nH]c2ccccc12)C(=O)N[C@@H](CCCCN)C(=O)NCC(=O)N[C@H](C(=O)N[C@@H](CCCCN)C(=O)N[C@@H](CC(=O)O)C(=O)N[C@H](C(=O)N[C@@H](CC(C)C)C(N)=O)[C@@H](C)CC)[C@@H](C)CC)[C@@H](C)CC; assay = broth microdilution; system = ATCC 25923; setting = with: KCl 4.5 mM; MIC = 100 µM
Structure (SMILES) = CC[C@H](C)[C@H](NC(=O)[C@H](CCCNC(=N)N)NC(=O)[C@H](CCCNC(=N)N)NC(=O)[C@H](CCCNC(=N)N)NC(=O)[C@H](CCCNC(=N)N)NC(=O)[C@H](CCCNC(=N)N)NC(=O)[C@@H](N)CCCNC(=N)N)C(=O)N[C@@H](CO)C(=O)N[C@@H](Cc1ccccc1)C(=O)N[C@@H](CC(C)C)C(=O)NCC(=O)N[C@@H](CO)C(=O)N[C@@H](CCCCN)C(=O)N[C@@H](CCCCN)C(=O)N[C@@H](CCCCN)C(=O)N[C@@H](CCCCN)C(=O)N[C@@H](CCCCN)C(=O)N[C@@H](CC(C)C)C(=O)N[C@@H](CC(C)C)C(=O)N[C@@H](CCCCN)C(=O)N[C@@H](CCCNC(=N)N)C(N)=O; assay = broth microdilution; setting = 24 h, 37 °C; MIC = 64 µM
Structure (SMILES) = CC[C@H](C)[C@H](NC(=O)[C@H](CCCCN)NC(=O)[C@H](CCCCN)NC(=O)CNC(=O)[C@H](CCCCN)NC(=O)[C@H](CC(C)C)NC(=O)[C@H](CCCCN)NC(=O)[C@H](CCCNC(=N)N)NC(=O)[C@@H](NC(=O)[C@H](CC(C)C)NC(=O)[C@H](CCCNC(=N)N)NC(=O)[C@@H](N)CCCNC(=N)N)[C@@H](C)CC)C(=O)N[C@@H](Cc1ccc(O)cc1)C(=O)N[C@@H](CC(C)C)C(=O)N[C@@H](Cc1ccc(O)cc1)C(=O)N[C@@H](Cc1ccccc1)C(=O)N[C@@H](CCCCN)C(=O)N[C@@H](CC(C)C)C(=O)N[C@@H](CCC(N)=O)C(=O)N[C@@H](CC(C)C)C(=O)N[C@@H](CC(C)C)C(=O)N[C@@H](CCCCN)C(=O)N[C@@H](CCCCN)C(N)=O; assay = broth microdilution; system = KCTC 1621, Mueller-Hinton broth; setting = with: FeCl3 4 µM; MIC = 64 µM
Structure (SMILES) = CC[C@H](C)[C@H](NC(=O)[C@H](CC(C)C)NC(=O)[C@H](CCCCN)NC(=O)[C@@H](NC(=O)[C@H](C)NC(=O)[C@H](CCC(=O)O)NC(=O)[C@H](Cc1c[nH]cn1)NC(=O)[C@@H](NC(=O)[C@H](CCCCN)NC(=O)[C@H](CCC(N)=O)NC(=O)[C@H](Cc1ccccc1)NC(=O)[C@@H](NC(=O)[C@H](CCCCN)NC(=O)[C@H](CCCCN)NC(=O)[C@H](CC(C)C)NC(=O)[C@H](C)N)C(C)C)[C@@H](C)CC)[C@@H](C)CC)C(N)=O; assay = CLSI broth microdilution; system = ATCC 25923; setting = 18 h, 37 °C; MIC = 4 µM
Structure (SMILES) = CC[C@H](C)[C@H](NC(=O)[C@H](CC(C)C)NC(=O)[C@H](CCCNC(=N)N)NC(=O)[C@@H](N)CCCNC(=N)N)C(=O)N[C@@H](CC(C)C)C(=O)N[C@H](C(=O)N[C@@H](CCCCN)C(=O)N[C@H](C(=O)NCC(=O)N1CCC[C@H]1C(=O)N[C@H](C(=O)N[C@H](C(=O)N[C@@H](Cc1ccc(O)cc1)C(=O)N[C@@H](CCCCN)C(=O)N[C@@H](Cc1ccc(O)cc1)C(=O)N[C@@H](Cc1ccccc1)C(=O)N[C@@H](CCCCN)C(=O)N[C@@H](CCCCN)C(=O)N[C@@H](CCC(N)=O)C(=O)N[C@@H](CC(C)C)C(=O)N[C@@H](CC(C)C)C(=O)N[C@@H](CCCCN)C(=O)N[C@@H](CC(C)C)C(N)=O)[C@@H](C)CC)[C@@H](C)CC)[C@@H](C)O)[C@@H](C)O; system = CCARM 3090, methicillin-resistant, Mueller-Hinton broth; setting = 24 h; MIC = 64 µM
Structure (SMILES) = CC[C@H](C)[C@H](NC(=O)[C@H](Cc1ccc(O)cc1)NC(=O)[C@@H](NC(=O)[C@H](Cc1c[nH]c2ccccc12)NC(=O)[C@@H]1CCCN1C(=O)[C@@H](NC(=O)[C@H](C)N)[C@@H](C)CC)[C@@H](C)CC)C(=O)N[C@@H](Cc1ccc(O)cc1)C(=O)N[C@@H](CCCNC(=N)N)C(=O)N[C@@H](CC(C)C)C(=O)N[C@@H](CC(C)C)C(=O)N[C@@H](CCCNC(=N)N)C(=O)N[C@@H](CCCCN)C(=O)NCC(=O)O; assay = broth microdilution; system = ATCC 6051; setting = 18 h, 37 °C; MIC = 0.94 µM
Structure (SMILES) = NCCCC1CN(c2ccc3c(n2)NC(=O)CO3)C(=O)O1 (stereo not drawn); system = ATCC 29213; MIC = 160 µg/mL
